Experimental data of several laboratories.
Each line is one published result; not all experiments were run side by side. Values joined by “and” are separate records of one study, mostly repeats; a detail may differ.
JAK2: Tyrosine-protein kinase JAK2 (JAK2, Homo sapiens, UniProt O60674)

SMILES | target | read-out | action | method | concentration | with | inhibition
Cc1cnc2nc1Nc1cccc(c1)COCCCCOCc1cc(ccc1OCCN1CCCC1)N2 | JAK2 | – | inhibitor | Z'-LYTE kinase | 3333.33 nM | – | 93.3% and 91.6% and 92%
Cc1[nH]nc2c1N=C(c1ccccc1Cl)c1cnc(N3CCOCC3)cc1N2 | JAK2 | enzyme activity | inhibitor | – | 0.5 µM | – | 98.6%
NC(=O)C[C@H]1CCc2sc3ncnc(O[C@H]4CC[C@H](N5CCOCC5)CC4)c3c21 | JAK2 | enzyme activity | inhibitor | – | 10 µM | – | 4%
CN1CC[C@@H](COc2cnc(C#N)cc2-c2ccn3nc(NC(=O)C4CC4)cc3c2)C1 | JAK2 | enzyme activity | inhibitor | – | 1 µM | – | 1%
O=C(Nc1ccc(Oc2ncnc3[nH]cc(-c4ccccc4)c23)c(F)c1)c1c2n(n(-c3cc(F)ccc3F)c1=O)CCCC2 | JAK2 | enzyme activity | inhibitor | – | 0.5 µM | – | 13%
Cc1cccc(O[C@H]2CCC[C@@H](C(C)CNCc3ccncc3)C2)c1 (relative stereo) | JAK2 | kinase activity | – | kinome panel screening | 1 µM | – | 2%
C=CC(=O)Nc1cccc(-c2cnc3[nH]cc(C(=O)NC(C)(C)C)c3n2)c1 | JAK2 | kinase activity | – | – | 0.1 µM | – | 97%
C=CC(=O)N1Cc2nc(-c3cc(-c4cc(Cl)cnc4Cl)c(F)cc3F)n(-c3ccncn3)c2C1 | Tyrosine-protein kinase JAK2, JH1 (JAK2, Homo sapiens, UniProt O60674) | cell-free assay | inhibitor | – | 1 µM | – | -2.9%
Cc1cnc2nc1Nc1cc(F)cc(c1)COC/C=C/COCc1cc(ccc1OCCN1CCCC1)N2 | JAK2 | – | inhibitor | Z'-LYTE kinase | 1.372 nM | – | 20.9% and 16.7% and 17.7%
Cc1nc2c(F)cc(-c3nc(Nc4ccc(CNC(=O)CCCCCCC(=O)NO)cc4)ncc3F)cc2n1C(C)C | JAK2 | enzyme activity | inhibitor | – | 1 µM | – | 100%
CCn1cc(C(=O)O)c(=O)c2c(N)c(F)c(NC3CCCCC3)cc21 | Tyrosine-protein kinase JAK2, JH1-JH2 domains (JAK2, Homo sapiens, UniProt O60674) | kinase activity | – | – | 0.1 µM | ATP at Km | 6.3%
Cc1cnc2nc1Nc1cccc(c1)COC/C=C/COCc1cc(ccc1OCCN1CCOCC1)N2 | JAK2 | – | inhibitor | Z'-LYTE kinase | 0.2441 nM | – | 23.1% and 22.2% and 28.8%
CN1CCN(Cc2ccc(-c3ccc(CO[C@H]4CCC[C@@H]4NC(=O)c4cc(-c5cnn(C)c5)cnc4N)cc3)cc2)CC1 | JAK2 | enzyme activity | inhibitor | – | 0.1 µM | – | -7%

Excerpt of the above:
SMILES | target | read-out | action | method | concentration | with | inhibition
CN1CCN(Cc2ccc(-c3ccc(CO[C@H]4CCC[C@@H]4NC(=O)c4cc(-c5cnn(C)c5)cnc4N)cc3)cc2)CC1 | JAK2 | enzyme activity | inhibitor | – | 0.1 µM | – | -7%
Cc1[nH]nc2c1N=C(c1ccccc1Cl)c1cnc(N3CCOCC3)cc1N2 | JAK2 | enzyme activity | inhibitor | – | 0.5 µM | – | 98.6%
